Published values from different studies.
Protocols differ between the studies behind these lines. ± gives the spread as reported.
OPRD1: Delta-type opioid receptor (OPRD1, Homo sapiens, UniProt P41143)
Sequence of UniProt P41143 (whole entry, looked up): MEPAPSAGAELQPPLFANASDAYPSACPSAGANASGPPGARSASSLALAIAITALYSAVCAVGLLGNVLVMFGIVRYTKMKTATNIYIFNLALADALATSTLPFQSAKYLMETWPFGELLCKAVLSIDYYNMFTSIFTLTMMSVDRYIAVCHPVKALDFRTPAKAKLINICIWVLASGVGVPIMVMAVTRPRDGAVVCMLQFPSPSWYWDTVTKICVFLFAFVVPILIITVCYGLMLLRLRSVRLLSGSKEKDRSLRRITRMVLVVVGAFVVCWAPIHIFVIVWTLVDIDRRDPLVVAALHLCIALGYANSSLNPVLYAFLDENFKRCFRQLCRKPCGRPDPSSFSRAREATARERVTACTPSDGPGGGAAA
GIPR: Gastric inhibitory polypeptide receptor (GIPR, Homo sapiens, UniProt P48546)
Sequence of UniProt P48546 (whole entry, looked up): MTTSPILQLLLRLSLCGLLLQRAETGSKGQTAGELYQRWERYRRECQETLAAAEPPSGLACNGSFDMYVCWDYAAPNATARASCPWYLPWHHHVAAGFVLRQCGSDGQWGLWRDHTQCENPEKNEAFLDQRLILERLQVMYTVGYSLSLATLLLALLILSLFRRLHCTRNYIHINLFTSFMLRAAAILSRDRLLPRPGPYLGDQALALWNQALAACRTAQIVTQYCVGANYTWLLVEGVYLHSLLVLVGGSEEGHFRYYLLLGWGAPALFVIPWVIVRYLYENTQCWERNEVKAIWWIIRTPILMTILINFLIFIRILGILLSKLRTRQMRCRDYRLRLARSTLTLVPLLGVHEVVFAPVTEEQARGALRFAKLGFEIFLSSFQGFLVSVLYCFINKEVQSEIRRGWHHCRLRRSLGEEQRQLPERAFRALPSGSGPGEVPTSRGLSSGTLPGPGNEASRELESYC
Sequence of UniProt P41146 (whole entry, looked up): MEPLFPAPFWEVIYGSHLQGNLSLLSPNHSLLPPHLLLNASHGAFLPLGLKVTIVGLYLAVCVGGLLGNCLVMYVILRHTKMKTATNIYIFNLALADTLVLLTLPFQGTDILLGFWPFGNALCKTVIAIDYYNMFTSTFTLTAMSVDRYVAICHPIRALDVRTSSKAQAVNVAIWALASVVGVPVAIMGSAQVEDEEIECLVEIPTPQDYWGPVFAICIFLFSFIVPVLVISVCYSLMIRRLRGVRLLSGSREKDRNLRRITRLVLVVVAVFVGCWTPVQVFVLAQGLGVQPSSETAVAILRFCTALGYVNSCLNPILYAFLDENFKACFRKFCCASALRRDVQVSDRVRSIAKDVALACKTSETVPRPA
Sequence of UniProt P41145 (whole entry, looked up): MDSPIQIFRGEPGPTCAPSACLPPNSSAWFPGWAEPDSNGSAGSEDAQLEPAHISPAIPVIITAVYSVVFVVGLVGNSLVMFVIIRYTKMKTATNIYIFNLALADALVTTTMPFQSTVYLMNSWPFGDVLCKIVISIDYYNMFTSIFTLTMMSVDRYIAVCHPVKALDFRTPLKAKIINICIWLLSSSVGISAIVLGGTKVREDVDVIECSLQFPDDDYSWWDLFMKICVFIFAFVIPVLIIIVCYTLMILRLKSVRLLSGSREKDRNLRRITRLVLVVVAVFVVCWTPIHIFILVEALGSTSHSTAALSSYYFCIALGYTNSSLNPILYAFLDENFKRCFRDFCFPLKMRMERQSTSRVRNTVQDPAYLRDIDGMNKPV
Sequence of UniProt P34972 (whole entry, looked up): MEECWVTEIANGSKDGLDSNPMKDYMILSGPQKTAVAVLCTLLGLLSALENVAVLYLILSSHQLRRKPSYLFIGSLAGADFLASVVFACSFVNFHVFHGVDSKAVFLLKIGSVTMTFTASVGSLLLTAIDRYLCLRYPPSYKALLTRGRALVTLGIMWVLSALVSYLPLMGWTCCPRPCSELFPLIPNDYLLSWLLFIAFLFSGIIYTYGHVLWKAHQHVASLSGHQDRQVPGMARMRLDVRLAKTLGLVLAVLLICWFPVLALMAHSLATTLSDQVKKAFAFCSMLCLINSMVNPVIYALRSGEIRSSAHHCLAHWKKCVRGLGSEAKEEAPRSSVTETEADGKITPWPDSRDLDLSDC
Sequence of UniProt P22001 (whole entry, looked up): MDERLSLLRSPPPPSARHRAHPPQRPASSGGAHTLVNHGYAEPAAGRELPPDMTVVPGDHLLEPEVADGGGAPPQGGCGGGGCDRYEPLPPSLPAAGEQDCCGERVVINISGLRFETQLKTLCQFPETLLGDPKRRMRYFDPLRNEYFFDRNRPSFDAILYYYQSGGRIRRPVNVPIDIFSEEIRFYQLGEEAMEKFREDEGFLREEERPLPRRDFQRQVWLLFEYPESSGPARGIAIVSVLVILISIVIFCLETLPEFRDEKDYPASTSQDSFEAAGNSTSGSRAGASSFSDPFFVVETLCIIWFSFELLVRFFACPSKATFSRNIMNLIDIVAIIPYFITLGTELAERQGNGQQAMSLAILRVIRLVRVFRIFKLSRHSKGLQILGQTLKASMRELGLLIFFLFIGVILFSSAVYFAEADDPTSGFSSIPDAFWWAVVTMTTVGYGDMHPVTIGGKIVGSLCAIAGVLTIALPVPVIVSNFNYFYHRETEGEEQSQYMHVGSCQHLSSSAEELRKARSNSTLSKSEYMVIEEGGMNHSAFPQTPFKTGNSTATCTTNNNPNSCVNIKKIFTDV

Compound | target | test | system | conditions | measurement | value
CC[C@H](C)[C@@H]1NC(=O)[C@H](Cc2c[nH]cn2)NC(=O)[C@H]([C@@H](C)CC)NC(=O)[C@H](CO)NC(=O)[C@H](CCCCN)NC(=O)[C@H](CCCNC(=N)N)NC(=O)[C@H]([C@@H](C)O)NC(=O)[C@H](CC(N)=O)NC(=O)[C@H](CC(N)=O)NC(=O)[C@H](CC(N)=O)NC(=O)[C@@H]2CCCN2C(=O)[C@H](CCCNC(=N)N)NC(=O)[C@H]([C@@H](C)O)NC(=O)[C@@H](NC(=O)[C@H](CC(N)=O)NC(=O)[C@@H](NC(=O)[C@H](CCC(=O)O)NC(=O)CCCCCNC(=O)CCCC[C@@H]2SC[C@@H]3NC(=O)N[C@@H]32)[C@@H](C)CC)CSSC[C@@H](C(=O)N[C@@H](CC(=O)N[C@@H]2O[C@H](CO)[C@@H](O[C@@H]3O[C@H](CO)[C@@H](O[C@@H]4O[C@H](CO[C@H]5O[C@H](CO[C@H]6O[C@H](CO)[C@@H](O)[C@H](O)[C@@H]6O[C@H]6O[C@H](CO)[C@@H](O)[C@H](O)[C@@H]6O)[C@@H](O)[C@H](O[C@H]6O[C@H](CO)[C@@H](O)[C@H](O)[C@@H]6O[C@H]6O[C@H](CO)[C@@H](O)[C@H](O)[C@@H]6O)[C@@H]5O)[C@@H](O)[C@H](O[C@H]5O[C@H](CO)[C@@H](O)[C@H](O)[C@@H]5O[C@H]5O[C@H](CO)[C@@H](O)[C@H](O)[C@@H]5O[C@H]5O[C@H](CO)[C@@H](O)[C@H](O)[C@@H]5O)[C@@H]4O)[C@H](O)[C@H]3NC(C)=O)[C@H](O)[C@H]2NC(C)=O)C(=O)N[C@H](C(=O)N[C@@H](CO)C(=O)N[C@@H](CCCNC(=N)N)C(=O)N[C@@H](C)C(=O)N[C@@H](CCCCN)C(=O)N[C@@H](Cc2c[nH]c3ccccc23)C(=O)N[C@@H](CC(N)=O)C(N)=O)[C@@H](C)CC)NC(=O)[C@H](Cc2c[nH]cn2)NC(=O)[C@H](C)NC(=O)[C@H](CCC(N)=O)NC(=O)[C@H](CCCNC(=N)N)NC(=O)[C@H]([C@@H](C)CC)NC(=O)[C@H](CC(=O)O)NC(=O)CNC(=O)[C@H]([C@@H](C)CC)NC(=O)[C@H]([C@@H](C)CC)NC(=O)[C@H](CCC(=O)O)NC(=O)CNC(=O)[C@H]([C@@H](C)O)NC(=O)[C@H]([C@@H](C)O)NC(=O)[C@H](Cc2ccc(O)cc2)NC(=O)[C@H](Cc2ccccc2)NC(=O)[C@H](C)NC(=O)[C@H](CCCNC(=N)N)NC(=O)CNC(=O)[C@@H]2CCCN2C(=O)CNC1=O | PGT128 antibody | SPR |  | pH 7.4, 25 °C | Kd | 3650 nM
CC[C@H](C)[C@@H]1NC(=O)[C@@H](NC(=O)[C@H](CO)NC(=O)[C@@H](N)CCCNC(=N)N)CSSC[C@@H](C(=O)O)NC(=O)[C@H]([C@@H](C)O)NC(=O)CNC(=O)[C@@H]2CSSC[C@@H]3NC(=O)[C@H](CCC(N)=O)NC(=O)[C@H](Cc4ccccc4)NC(=O)[C@H](C)NC(=O)[C@H]([C@@H](C)O)NC(=O)[C@H](CSSC[C@H](NC(=O)[C@H](Cc4ccccc4)NC(=O)[C@H](CO)NC(=O)[C@H](CC(C)C)NC(=O)[C@H](CCCNC(=N)N)NC(=O)[C@H](Cc4ccc(O)cc4)NC(=O)[C@H](CCCCN)NC(=O)[C@H](CCSC)NC(=O)[C@H](CO)NC(=O)[C@H](Cc4cnc[nH]4)NC(=O)[C@H](CCCCN)NC3=O)C(=O)N[C@@H](CCCNC(=N)N)C(=O)N[C@@H](CCCCN)C(=O)N[C@@H]([C@@H](C)O)C(=O)N2)NC(=O)[C@H](CCCNC(=N)N)NC(=O)[C@H](CO)NC(=O)[C@H](CCCCN)NC(=O)[C@@H]2CCCN2C(=O)[C@H]([C@@H](C)CC)NC(=O)[C@H]([C@@H](C)O)NC(=O)[C@H](CC(=O)O)NC1=O | KCNA3 (Homo sapiens, UniProt P22001) | potassium current, inhibitor, two-electrode voltage clamp | Xenopus oocytes |  | Ki | 0.05 ± 0.01 nM
CC(C)C[C@H](NC(=O)[C@H](CO[C@@H]1O[C@H](CO)[C@@H](O)[C@H](O)[C@H]1O)NC(=O)[C@H](CCCCN)NC(=O)[C@H](CC(C)C)NC(=O)C(C)(C)NC(=O)[C@H](CCCCN)NC(=O)[C@H](CCC(=O)O)NC(=O)[C@H](C)NC(=O)[C@H](CC(C)C)NC(=O)[C@H](CC(N)=O)NC(=O)[C@@H]1CCCN1C(=O)[C@H](CC(C)C)NC(=O)[C@H](Cc1ccccc1)NC(=O)CNC(=O)[C@H](NC(=O)[C@@H](N)Cc1ccc(O)cc1)[C@H](C)O)C(N)=O | OPRD1 | ligand displacement, radioligand |  | pH 7.5, cell membranes | Ki | 3.6 nM
CCCC[C@@H]1NC(=O)[C@H](Cc2ccc(F)cc2)NC(=O)[C@H](CCC(N)=O)NC(=O)[C@H](Cc2ccc(O)cc2)NC(=O)[C@H](Cc2c[nH]c3ccccc23)NC(=O)[C@@H](C)NC(=O)[C@H](CCC(=O)N[C@@H](CCCCN)C(N)=O)NC(=O)[C@@H](C)NC(=O)[C@@H](C)NC(=O)[C@@H](C)NC1=O | Gag polyprotein, p6 deleted (gag, Human immunodeficiency virus type 1 group M subtype B, UniProt P03347) | fluorescence anisotropy | HIV-1 | with: 100 nM fluorescein-labelled peptide | Kd | 800 to 900 nM
CCCCCCCCCCCCCCCC(=O)N[C@@H](CCC(=O)NCCCC[C@H](NC(=O)[C@H](CC(=O)O)NC(=O)[C@H](CO)NC(=O)[C@@H](NC(=O)[C@H](Cc1ccccc1)NC(=O)[C@@H](NC(=O)CNC(=O)[C@H](CCC(N)=O)NC(=O)[C@H](C)NC(=O)[C@@H](Cc1ccc(O)cc1)NC(C)=O)[C@@H](C)O)[C@@H](C)O)C(=O)N[C@@H](CO)C(=O)N[C@@H](CCCCN)C(=O)N[C@@H](Cc1ccc(O)cc1)C(=O)N[C@@H](CC(C)C)C(=O)N[C@@H](CC(=O)O)C(=O)N[C@@H](CCC(=O)O)C(=O)N[C@@H](CCCNC(=N)N)C(=O)N[C@@H](C)C(=O)N[C@@H](C)C(=O)N[C@@H](CCC(N)=O)C(=O)N[C@@H](CC(=O)O)C(=O)N[C@@H](Cc1ccccc1)C(=O)N[C@H](C(=O)N[C@@H](CCC(N)=O)C(=O)N[C@@H](Cc1c[nH]c2ccccc12)C(=O)N[C@@H](CC(C)C)C(=O)N[C@@H](CC(C)C)C(=O)N[C@@H](CCC(=O)O)C(=O)NCC(=O)NCC(=O)N1CCC[C@H]1C(=O)N[C@@H](CO)C(=O)N[C@@H](CO)C(=O)NCC(=O)N[C@@H](C)C(=O)N1CCC[C@H]1C(=O)N1CCC[C@H]1C(=O)N1CCC[C@H]1C(=O)N[C@@H](CO)C(N)=O)C(C)C)C(=O)O | GIPR | reporter gene, agonist, luciferase |  |  | EC50 | 0.0035 nM
CC[C@H](C)[C@H](NC(=O)[C@H](CCCN)NC(=O)[C@H](CC(=O)O)NC(=O)[C@H](CC(C)C)NC(=O)C(C)(CC(C)C)NC(=O)[C@@H](NC(=O)[C@H](CO)NC(=O)[C@H](Cc1ccc(O)cc1)NC(=O)[C@H](CC(=O)O)NC(=O)[C@H](CO)NC(=O)[C@@H](NC(=O)[C@H](Cc1ccccc1)NC(=O)[C@@H](NC(=O)CNC(=O)[C@H](CCC(=O)O)NC(=O)C(C)(C)NC(=O)[C@@H](N)Cc1ccc(O)cc1)[C@@H](C)O)[C@@H](C)CC)[C@@H](C)CC)C(=O)N[C@@H](Cc1c[nH]cn1)C(=O)N[C@@H](CCC(N)=O)C(=O)NC(C)(C)C(=O)N[C@@H](CC(=O)O)C(=O)N[C@@H](Cc1ccccc1)C(=O)N[C@H](C(=O)N[C@@H](CCC(=O)O)C(=O)N[C@@H](Cc1ccc(O)cc1)C(=O)N[C@@H](CCCCNC(=O)COCCOCCNC(=O)COCCOCCNC(=O)CC[C@H](NC(=O)CCCCCCCCCCCCCCCCCCC(=O)O)C(=O)O)C(=O)N[C@@H](CC(C)C)C(=O)N[C@@H](CCC(=O)O)C(=O)NCC(=O)NCC(=O)N1CCC[C@H]1C(=O)N[C@@H](CO)C(=O)N[C@@H](CO)C(=O)NCC(=O)N[C@@H](C)C(=O)N1CCC[C@H]1C(=O)N1CCC[C@H]1C(=O)N1CCC[C@H]1C(=O)N[C@@H](CO)C(N)=O)C(C)C (stereo partly shown) | GIPR | cAMP, agonist |  |  | EC50 | 0.012 nM
CC[C@H](C)[C@@H]1NC(=O)[C@H]([C@@H](C)O)NC(=O)[C@H](CCC(=O)O)NC(=O)[C@H](CO)NC(=O)[C@H](Cc2ccc(O)cc2)NC(=O)[C@@H]2CSSC[C@@H]3NC(=O)[C@H]([C@@H](C)CC)NC(=O)[C@@H]4CCCN4C(=O)[C@H](Cc4c[nH]c5ccccc45)NC(=O)[C@H](CCC(=O)O)NC(=O)[C@@H]4CSSC[C@H](NC(=O)[C@H]([C@@H](C)O)NC(=O)[C@H](CCC(=O)O)NC(=O)CNC(=O)[C@H](CSSC[C@H](NC(=O)CNC1=O)C(=O)N[C@@H]([C@@H](C)O)C(=O)N4)NC(=O)[C@@H]1CCCN1C(=O)[C@H](CC(C)C)NC(=O)[C@@H]1CCCN1C(=O)[C@H](CC(=O)O)NC(=O)CNC(=O)[C@H](CC(N)=O)NC(=O)[C@H](CCCCN)NC(=O)[C@H]([C@@H](C)O)NC3=O)C(=O)N[C@@H](Cc1ccccc1)C(=O)N[C@@H]([C@@H](C)O)C(=O)NCC(=O)N[C@@H](CCCCN)C(=O)N2 | CNR2 (Homo sapiens, UniProt P34972) | ligand displacement, radioligand |  | cell membranes | Ki | 1000 nM
CC(C)C[C@H](NC(=O)[C@H](CO)NC(=O)[C@H](CCCCN)NC(=O)[C@H](CC(C)C)NC(=O)[C@H](C)NC(=O)[C@H](CCCCN)NC(=O)[C@H](CCC(=O)O)NC(=O)CNC(=O)[C@H](CC(C)C)NC(=O)[C@H](CC(N)=O)NC(=O)[C@@H]1CCCN1C(=O)[C@H](CC(C)C)NC(=O)[C@H](Cc1ccccc1)NC(=O)CNC(=O)[C@H](NC(=O)[C@@H](N)Cc1ccc(O)cc1)[C@H](C)O)C(N)=O | OPRD1 | ligand displacement, radioligand |  | pH 7.5, cell membranes | Ki | 11 nM
Cc1ccc(C)c(OCCn2cc(C(=O)O)c3ccccc32)c1 | RAC1 (Homo sapiens, UniProt P63000, Q61L) | GTP binding, activator, flow cytometry bead |  | EDTA buffer, with: 100 nM BODIPY-GTP | EC50 | 224 nM
CC(C)C[C@H](NC(=O)[C@H](CO)NC(=O)[C@H](CCCCN)NC(=O)[C@H](CC(C)C)NC(=O)[C@H](C)NC(=O)[C@H](CCCCN)NC(=O)[C@H](CCC(=O)O)NC(=O)C(C)(C)NC(=O)[C@H](CC(C)C)NC(=O)[C@H](CC(N)=O)NC(=O)[C@@H]1CCCN1C(=O)[C@H](CC(C)C)NC(=O)[C@H](Cc1ccccc1)NC(=O)CNC(=O)[C@H](NC(=O)[C@@H](N)Cc1ccc(O)cc1)[C@H](C)O)C(N)=O | OPRD1 | ligand displacement, radioligand |  | pH 7.5, cell membranes | Ki | 25 nM
Cc1cc(O)cc(C)c1C[C@H](N)C(=O)NCC(=O)NCC(=O)N[C@@H](Cc1ccccc1)C(=O)N[C@H](C(=O)NCC(=O)N[C@@H](C)C(=O)N[C@@H](CCCNC(=N)N)C(=O)N[C@@H](CCCCN)C(=O)N[C@@H](CO)C(=O)N[C@@H](C)C(=O)N[C@@H](CCCNC(=N)N)C(=O)N[C@@H](CCCCN)C(N)=O)[C@@H](C)O | Nociceptin receptor, with Gβ1 (OPRL1, Homo sapiens, UniProt P41146) | G-protein interaction, agonist, BRET, measured: Gβ1 | HEK293 cell membranes | 15 min, room temperature | EC50 | 0.38 nM
CC(C)C[C@H](NC(=O)[C@H](CO)NC(=O)[C@H](CCCCN)NC(=O)[C@H](CC(C)C)NC(=O)CNC(=O)[C@H](CCCCN)NC(=O)[C@H](CCC(=O)O)NC(=O)[C@H](C)NC(=O)[C@H](CC(C)C)NC(=O)[C@H](CC(N)=O)NC(=O)[C@@H]1CCCN1C(=O)[C@H](CC(C)C)NC(=O)[C@H](Cc1ccccc1)NC(=O)CNC(=O)[C@H](NC(=O)[C@@H](N)Cc1ccc(O)cc1)[C@H](C)O)C(N)=O | OPRK1 (Homo sapiens, UniProt P41145) | ligand displacement, radioligand |  | pH 7.5, cell membranes | Ki | 15 nM
C[C@H](NC(=O)CNC(=O)[C@@H](NC(=O)[C@H](Cc1ccccc1)NC(=O)CNC(=O)CNC[C@@H](N)Cc1ccccc1)[C@@H](C)O)C(=O)N[C@@H](CCCN=C(N)N)C(=O)N[C@@H](CCCCN)C(=O)N[C@@H](CO)C(=O)N[C@@H](C)C(=O)N[C@@H](CCCN=C(N)N)C(=O)N[C@@H](CCCCN)C(N)=O | Nociceptin receptor, with G protein (OPRL1, Homo sapiens, UniProt P41146) | agonist |  |  | EC50 | 3.55 nM

Repeated from above:
Compound | target | test | system | conditions | measurement | value
Cc1ccc(C)c(OCCn2cc(C(=O)O)c3ccccc32)c1 | RAC1 (Homo sapiens, UniProt P63000, Q61L) | GTP binding, activator, flow cytometry bead |  | EDTA buffer, with: 100 nM BODIPY-GTP | EC50 | 224 nM
